Results from different studies.
Protocols differ between the studies behind these lines. Values joined by “and” are separate records of one study, mostly repeats; a detail may differ. ± marks the error that the study gave.
U2AF2: U2AF2 148-342 (Homo sapiens, UniProt P26368)
UniProt P26368, sequence (whole entry, looked up): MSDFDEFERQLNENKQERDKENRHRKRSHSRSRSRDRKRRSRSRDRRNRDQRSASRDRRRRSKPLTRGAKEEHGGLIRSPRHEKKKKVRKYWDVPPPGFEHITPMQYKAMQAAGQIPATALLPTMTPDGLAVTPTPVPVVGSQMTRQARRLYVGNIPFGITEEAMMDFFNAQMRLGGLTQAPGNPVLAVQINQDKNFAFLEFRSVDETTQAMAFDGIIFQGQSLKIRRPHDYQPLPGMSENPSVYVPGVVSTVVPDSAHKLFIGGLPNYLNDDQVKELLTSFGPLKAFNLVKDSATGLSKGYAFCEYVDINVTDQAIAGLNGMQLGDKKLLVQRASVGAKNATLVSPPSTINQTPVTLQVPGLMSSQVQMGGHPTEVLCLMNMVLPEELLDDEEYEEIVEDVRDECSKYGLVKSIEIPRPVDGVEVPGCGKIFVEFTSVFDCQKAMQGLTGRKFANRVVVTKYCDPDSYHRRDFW
CDK5 with p25: Cyclin-dependent kinase 5, with p25 (CDK5, Homo sapiens, UniProt Q00535)
UniProt Q00535, sequence (whole entry, looked up): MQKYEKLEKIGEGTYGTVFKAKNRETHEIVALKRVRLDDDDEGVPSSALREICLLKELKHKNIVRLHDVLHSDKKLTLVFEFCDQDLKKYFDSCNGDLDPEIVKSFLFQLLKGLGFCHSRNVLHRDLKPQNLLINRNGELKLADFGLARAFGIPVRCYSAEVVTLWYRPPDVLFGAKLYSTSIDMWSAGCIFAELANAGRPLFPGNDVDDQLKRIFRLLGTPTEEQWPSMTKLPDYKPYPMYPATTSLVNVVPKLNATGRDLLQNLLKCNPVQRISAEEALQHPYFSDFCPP
B1: Protein S100-A8 (human); sequence looked up; chain MLTELEKALNSIIDVYHKYSLIKGNFHAVYRDDLKKLLETECPQYIRKKGADVWFKELDINTDGAVNFQEFLILVIKMGVAAHKKSHEESHKE

| Molecule | tested on | assay | test system | conditions | how to read | quantity | value |
| --- | --- | --- | --- | --- | --- | --- | --- |
| colistin | Escherichia coli | broth microdilution | clinical isolate RKI-No_317/16 | – | – | MIC | 4 µg/mL |
| Peginesatide | UT7/EPO | microarray, refers to: MAFF mRNA (probe set 36711_at) | – | 20 nM, 90 min | relative to: vehicle | mRNA level | 4.6 fold |
| human MSH6 | CYB5R4 knockout human cells | PP6 interaction, 3xFLAG-PP6C IP-MS | – | concentration not given | relative to: CYB5R4 KO over parental | log2 fold change | -0.4 |
| NPDALPETLV | construct, MBP fusion, human SCRIB, PDZ 3-4 | surface plasmon resonance | peptide | concentration not given | higher = stronger binding | normalised SPR binding response | 10.7 normalised RU |
| B1 (Protein S100-A8) | CYB5R4 knockout human cells | PP4 interaction, 3xFLAG-PP4C IP-MS | – | concentration not given | relative to: CYB5R4 KO over parental | log2 fold change | 0.67 |
| CAUUUUGGG (ssRNA) | U2AF2 | sequencing of bound RNA | RNA | motif only | – | Kd | 1.9 µM |
| maraviroc | – | Western blot | HIV-infected mice, somatosensory cortex | i.p., 120 mg/kg twice daily, 3 weeks post infection | relative to: HIV-infected untreated mice, increase | protein level | 1.64 fold |
| human E-Syt1 | PP6C (human) | co-immunoprecipitation, IP-MS | CYB5R4 knockout cells | concentration not given | relative to: CYB5R4 knockout over parental | log2 fold change | -0.61 |
| GSGAGKETYY | construct, MBP fusion, human SCRIB, PDZ 3-4 | automated holdup | peptide, purified PDZ protein | concentration not given, unit not given | relative to: biotin control resin, higher = stronger binding | binding intensity | -0.00579 |
| Nisin | Bacillus subtilis | bacterial cytological profiling | ATCC 6633 | concentration not given | – | cell width | 0.67 µm and 0.66 µm |
| GSGAGHETIV | construct, MBP fusion, human SCRIB, PDZ 3-4 | automated holdup | peptide, crude extract | concentration not given, uncorrected, unit not given | relative to: biotin control resin, higher = stronger binding | binding intensity | 0.333 |
| human ILF2 | CYB5R4 knockout human cells | PP4 interaction, 3xFLAG-PP4C IP-MS | – | concentration not given | relative to: CYB5R4 KO over parental | log2 fold change | -0.83 |
| KEAFWDRCLSVINLMSSRMLQINA | CDK5 with p25 | phosphotransferase activity, radiometric | peptide | concentration not given, 10% DMSO, added: histone substrate | relative to: p5-WT peptide | activity change | 29% |
| UACUUUUCU (ssRNA) | U2AF2 | sequencing of bound RNA | RNA | motif only | – | Kd | 4.71 µM |
| proteasome subunit beta-1 (human) | CYB5R4 knockout human cells | PP4 interaction, 3xFLAG-PP4C IP-MS | – | concentration not given | relative to: CYB5R4 KO over parental | log2 fold change | 1.45 |
| milbemycin oxime | Saccharomyces cerevisiae | cell growth | Pdr5 deleted, Cdr1 overexpressed | 2^-3.966 µg/mL, added: fluconazole 1 µg/mL | – | OD600 | 0.082 and 0.07 and 0.088 |
| KDECVIATEV | construct, MBP fusion, human SCRIB, PDZ 3-4 | automated holdup | peptide, crude extract | concentration not given, corrected by standard peak, unit not given | relative to: biotin control resin, higher = stronger binding | binding intensity | 0.0689 |
| KEAFWQRCLSVINLMSSKMLQINA | CDK5 with p25 | phosphotransferase activity, radiometric | peptide | concentration not given, 10% DMSO, added: histone substrate | relative to: p5-WT peptide | activity change | 25% |
| GSGAGKETSF | construct, MBP fusion, human SCRIB, PDZ 3-4 | automated holdup | peptide, purified PDZ protein | concentration not given, unit not given | relative to: biotin control resin, higher = stronger binding | binding intensity | 0.606 |
| MTVCNASQRQAHAQATAVSL | H2009 | phage binding | peptide | – | relative to: targeting over control phage | selectivity ratio | 2.2 ± 0.96 |

Excerpt of the above:
| Molecule | tested on | assay | test system | conditions | how to read | quantity | value |
| --- | --- | --- | --- | --- | --- | --- | --- |
| KEAFWDRCLSVINLMSSRMLQINA | CDK5 with p25 | phosphotransferase activity, radiometric | peptide | concentration not given, 10% DMSO, added: histone substrate | relative to: p5-WT peptide | activity change | 29% |
| UACUUUUCU (ssRNA) | U2AF2 | sequencing of bound RNA | RNA | motif only | – | Kd | 4.71 µM |
| proteasome subunit beta-1 (human) | CYB5R4 knockout human cells | PP4 interaction, 3xFLAG-PP4C IP-MS | – | concentration not given | relative to: CYB5R4 KO over parental | log2 fold change | 1.45 |
